# Experimental data from different studies.
# Each line is one published result; not all experiments were run side by side. ± gives the spread as reported.
Compound,assay,test system,setting,logD
C[C@@H](NC(=O)c1ccccc1CCC(=O)NNC(=O)/C=C/C(=O)OCc1ncccn1)c1cccc2ccccc12,,,,2.8
CC(=O)c1cccc(NC(=O)CSc2nnc(-c3cc4ccccc4cc3O)n2C)c1,,octanol/buffer,pH 7.4,3.47
CN1CCN(c2cccc(-c3ccc4ncnc(Nc5ccc(Cl)c(Cl)c5)c4c3)c2)CC1,shake flask,1-octanol/phosphate buffer,pH 7.4,> 4.1
COc1cc2[nH]c(C)c(-c3ccoc3)c(=O)c2cc1Cl,chromatographic,,pH 7.4,2
COC(=O)/C=C/C(=O)NNC(=O)CCc1ccccc1C(=O)N[C@H](C)c1cccc(-c2cncnc2)c1,,,,1.8
COc1ccc(-c2c(C)[nH]c3cc(OC)c(Cl)cc3c2=O)cc1,chromatographic,,pH 7.4,2.4
CCn1cc(C(=O)O)c(=O)c2ccc(C)nc21,miniaturised shake-flask,1-octanol/water,,0.1
COc1cccc(OC)c1-c1cc(C(=O)NC2(C(=O)O)C3CC4CC(C3)CC2C4)nn1-c1ccc(C(=O)N(C)CCCN(C)CCCN(C)C(=O)CN2CCN(CC(=O)[O-])CCN(CC(=O)[O-])CCN(CC(=O)[O-])CC2)cc1C(C)C.[177Lu+3] (stereo not drawn),radiometric,1-octanol/PBS,"pH 7.4, 177Lu-labelled conjugate",-2.46 ± 0.03
CC(C)(C)c1ccc([C@@H]2COC[C@H](c3ccc(F)c(C#N)c3)N2)cc1,"shake-flask, 1-octanol/buffer",,pH 7.4,> 4.7
CC1(CNC(=O)[C@H](CN)NC(=O)c2ccc(-c3ccc(Br)cc3)cc2)NC(=O)NC1=O (stereo partly drawn),,octanol/buffer,pH 7.4,1.88
COc1cccc(CCc2cc(O)c(=O)[nH]n2)c1,shake-flask,,pH 7.4,0.3 ± 0.001
COC(=O)c1ccc(NC(=O)CSc2nnnn2-c2ccccc2OC)cc1,,octanol/buffer,pH 7.4,3.55
COc1ccc(Cl)cc1-c1cc(=O)[nH]c(=S)n1CC(N)=O,,,,0.8
CCOC(=O)N1C[C@@H](C2CCCCC2)N[C@@H](c2cccc(OC)c2)C1,"shake-flask, 1-octanol/buffer",,pH 7.4,> 4.7
COc1ccc(-c2nnc(SCC(=O)Nc3c(F)cc(F)cc3Br)n2C)cc1,,octanol/buffer,pH 7.4,2.75
CC[N+]1(C)CCN(c2ccc(NC(=O)c3cccc(C)n3)cc2)CC1,,,pH 7.4,-0.3
O=C(O)c1cc(-c2ccc(-c3c[nH]nn3)cc2)c2ccc(-c3ccc(C(F)(F)F)cc3)cc2c1,HPLC retention,,"pH 7.4, chromatographic logD",0.35 ± 0.02
CCOC(=O)N1C[C@@H](c2ccc(Cl)cc2)N[C@@H](c2ccc(C(C)(C)C)cc2)C1,"shake-flask, 1-octanol/buffer",,pH 7.4,> 4.7
COc1cc2[nH]c(C)c(-c3ccc(C(C)C)cc3)c(=O)c2cc1Cl,chromatographic,,pH 7.4,3.6
CC(C)CCNC(=O)c1ncccc1O,miniaturised shake-flask,1-octanol/water,,3.2
COc1ccc([C@@H]2COC[C@H](c3ccc(C(C)(C)C)cc3)N2)cc1,"shake-flask, 1-octanol/buffer",,pH 7.4,> 4.7
COc1cc2[nH]c(C)c(-c3ccc(N(C)C)nc3)c(=O)c2cc1Cl,chromatographic,,pH 7.4,1.9
CN1C(C(=O)Nc2ccc(F)cn2)=C(O)c2ccccc2S1(=O)=O,miniaturised shake-flask,1-octanol/water,,0.3
O=[N+]([O-])c1ccc(Nc2ncnc3ccc(-c4cccc(N5CCOCC5)c4)cc23)cc1C(F)(F)F,shake flask,1-octanol/phosphate buffer,pH 7.4,> 3.4
O=C(O)CNC(=O)c1ncc(-c2cccc(F)c2)cc1O,miniaturised shake-flask,1-octanol/water,,-0.3
C[C@@H](NC(=O)c1ccccc1CCC(=O)NNC(=O)/C=C/C(=O)N(C)C)c1cccc2ccccc12,,,,3
COc1cc2[nH]c(C)c(-c3ccccc3OC(F)(F)F)c(=O)c2cc1Cl,chromatographic,,pH 7.4,3
C[C@@H](NC(=O)c1ccccc1CCC(=O)NNC(=O)/C=C/C(=O)OCc1ccc2ccccc2n1)c1cccc2ccccc12,,,,5
c1ccc(-c2ccc([C@H]3COC[C@@H](c4ccc(-n5cncn5)cc4)N3)cc2)cc1,"shake-flask, 1-octanol/buffer",,pH 7.4,> 4.7
COc1cccnc1-c1nc2ccccn2c1N(C)c1ccc(F)cc1,,,pH 7.4,3.6
CCCCc1nc2c(N)nc3ccccc3c2n1Cc1ccc(N)cc1,shake-flask LC-MS/MS,octanol/PBS,"pH 7.4, room temperature",2.61
O=C(Nc1ccc(F)cc1)N1CCNCC1COc1ccc2ccccc2c1 (stereo not drawn),experimental partition,,pH 7.4,3.23 ± 0.03
c1cc(-c2ccc3ncnc(Nc4ncco4)c3c2)cc(N2CC3(COC3)C2)c1,shake flask,1-octanol/phosphate buffer,pH 7.4,> 4
Cc1ccc([C@H]2N[C@@H](c3ccc(Cl)c(Cl)c3)CO[C@@H]2C)cc1,"shake-flask, 1-octanol/buffer",,pH 7.4,> 4.7
COc1ccc(NC(=O)CSc2nnnn2C)cc1,,octanol/buffer,pH 7.4,1.23
COc1cc2[nH]c(C)c(-c3ccccc3C)c(=O)c2cc1Cl,chromatographic,,pH 7.4,2.5
COc1cc(OC)c(NC(=O)CSc2nnc(-c3ccncc3)n2-c2ccccc2)cc1Cl,,octanol/buffer,pH 7.4,3.17
O=C(O)c1cc(-c2ccc(-c3ccncc3)cc2)c2ccc(-c3ccc(C(F)(F)F)cc3)cc2c1,HPLC retention,,"pH 7.4, chromatographic logD",1.2
COc1cc2[nH]c(C)c(-c3ccccc3CO)c(=O)c2cc1Cl,chromatographic,,pH 7.4,1.8
CN(CCCCCCNC(=O)CNc1cccc2c1C(=O)N(C1CCC(=O)NC1=O)C2=O)Cc1cn(Cc2ccc(C(=O)NO)cc2)c2ccccc12 (stereo not drawn),HPLC-based method,,pH 7.4,1.3
O=C(O)CNC(=O)c1c(O)cc(CCc2ccccc2)n2ncnc12,miniaturised shake-flask,1-octanol/water,,0
COc1cc2[nH]c(C)c(-c3ccc(Oc4ccccc4)cc3)c(=O)c2cc1Cl,chromatographic,,pH 7.4,3.7
CC(CCc1ccccc1)NCC(O)c1ccc(O)c(C(N)=O)c1 (stereo not drawn),miniaturised shake-flask,1-octanol/water,,1.2
Cc1cc(Cl)cc2sc(N(CC3CCNCC3)C(=O)c3ccco3)nc12,,,,1.48
O=C(CSc1nnc(-c2ccccc2O)n1-c1ccccc1)Nc1cccc(C(=O)O)c1,,octanol/buffer,pH 7.4,0.2
N#Cc1ccc([C@@H]2COC[C@H](c3cc(Cl)cc(Cl)c3)N2)cc1,"shake-flask, 1-octanol/buffer",,pH 7.4,> 4.7
Cc1ccc(N(C)c2ccc(NC(=O)CN(C)c3cc(F)ccc3N3CCCC3=O)cc2)cc1,shake-flask,,,5
CCOC(=O)N1C[C@@H](c2ccc(C(F)(F)F)cc2)N[C@@H](C(CC)CC)C1,"shake-flask, 1-octanol/buffer",,pH 7.4,> 4.7
O=C(NC1CCCCC1)c1nccc(Cl)c1O,miniaturised shake-flask,1-octanol/water,,2.4
COc1cc(OC)c(NC(=O)CSc2nnc(-c3ccncc3)n2C)cc1Cl,,octanol/buffer,pH 7.4,1.78
CCN(c1ccc(C)cc1)c1ccc(NC(=O)CN(C)c2ccccc2N2CCCC2=O)cn1,shake-flask,,,4.4

# For quick reference, copied from above:
Compound,assay,test system,setting,logD
c1ccc(-c2ccc([C@H]3COC[C@@H](c4ccc(-n5cncn5)cc4)N3)cc2)cc1,"shake-flask, 1-octanol/buffer",,pH 7.4,> 4.7
COc1ccc(-c2c(C)[nH]c3cc(OC)c(Cl)cc3c2=O)cc1,chromatographic,,pH 7.4,2.4
O=C(O)c1cc(-c2ccc(-c3c[nH]nn3)cc2)c2ccc(-c3ccc(C(F)(F)F)cc3)cc2c1,HPLC retention,,"pH 7.4, chromatographic logD",0.35 ± 0.02
CN1CCN(c2cccc(-c3ccc4ncnc(Nc5ccc(Cl)c(Cl)c5)c4c3)c2)CC1,shake flask,1-octanol/phosphate buffer,pH 7.4,> 4.1
C[C@@H](NC(=O)c1ccccc1CCC(=O)NNC(=O)/C=C/C(=O)N(C)C)c1cccc2ccccc12,,,,3
COc1ccc(-c2nnc(SCC(=O)Nc3c(F)cc(F)cc3Br)n2C)cc1,,octanol/buffer,pH 7.4,2.75
CC(CCc1ccccc1)NCC(O)c1ccc(O)c(C(N)=O)c1 (stereo not drawn),miniaturised shake-flask,1-octanol/water,,1.2
